# Literature values as cited in several papers.
# By UniProt entry, the sequences of proteins in these tests, tags left out. Residues count along the entry.
# UniProt P04757, whole entry, looked up: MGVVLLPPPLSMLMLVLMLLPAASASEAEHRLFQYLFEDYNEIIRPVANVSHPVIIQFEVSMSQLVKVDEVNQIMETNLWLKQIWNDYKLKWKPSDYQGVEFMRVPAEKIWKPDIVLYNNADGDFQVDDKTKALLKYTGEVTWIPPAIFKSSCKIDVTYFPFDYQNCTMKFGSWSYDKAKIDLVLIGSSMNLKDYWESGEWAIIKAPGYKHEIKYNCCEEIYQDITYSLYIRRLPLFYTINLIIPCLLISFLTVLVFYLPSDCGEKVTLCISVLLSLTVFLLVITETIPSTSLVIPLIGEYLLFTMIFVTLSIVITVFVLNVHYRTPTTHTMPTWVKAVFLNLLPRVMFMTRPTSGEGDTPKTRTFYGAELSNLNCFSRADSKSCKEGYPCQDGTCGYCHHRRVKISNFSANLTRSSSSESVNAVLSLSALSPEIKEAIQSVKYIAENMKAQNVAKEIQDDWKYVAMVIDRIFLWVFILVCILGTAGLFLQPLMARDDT
# UniProt P12390, whole entry, looked up: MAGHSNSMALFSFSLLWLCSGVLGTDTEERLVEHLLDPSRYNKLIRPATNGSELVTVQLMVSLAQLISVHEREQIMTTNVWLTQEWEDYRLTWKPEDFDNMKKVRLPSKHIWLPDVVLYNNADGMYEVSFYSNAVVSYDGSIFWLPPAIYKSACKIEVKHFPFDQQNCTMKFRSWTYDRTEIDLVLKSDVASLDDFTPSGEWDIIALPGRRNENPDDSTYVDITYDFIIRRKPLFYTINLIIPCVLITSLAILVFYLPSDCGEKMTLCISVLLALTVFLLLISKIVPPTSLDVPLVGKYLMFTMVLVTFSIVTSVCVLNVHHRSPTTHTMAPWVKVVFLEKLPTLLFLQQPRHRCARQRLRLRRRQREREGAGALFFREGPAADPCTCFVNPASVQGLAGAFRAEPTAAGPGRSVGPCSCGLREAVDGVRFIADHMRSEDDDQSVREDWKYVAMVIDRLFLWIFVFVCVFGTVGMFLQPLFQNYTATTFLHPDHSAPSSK
# UniProt P43143, whole entry M241L/F253L/V303I/V320I/I327V/A333T/K339T, looked up: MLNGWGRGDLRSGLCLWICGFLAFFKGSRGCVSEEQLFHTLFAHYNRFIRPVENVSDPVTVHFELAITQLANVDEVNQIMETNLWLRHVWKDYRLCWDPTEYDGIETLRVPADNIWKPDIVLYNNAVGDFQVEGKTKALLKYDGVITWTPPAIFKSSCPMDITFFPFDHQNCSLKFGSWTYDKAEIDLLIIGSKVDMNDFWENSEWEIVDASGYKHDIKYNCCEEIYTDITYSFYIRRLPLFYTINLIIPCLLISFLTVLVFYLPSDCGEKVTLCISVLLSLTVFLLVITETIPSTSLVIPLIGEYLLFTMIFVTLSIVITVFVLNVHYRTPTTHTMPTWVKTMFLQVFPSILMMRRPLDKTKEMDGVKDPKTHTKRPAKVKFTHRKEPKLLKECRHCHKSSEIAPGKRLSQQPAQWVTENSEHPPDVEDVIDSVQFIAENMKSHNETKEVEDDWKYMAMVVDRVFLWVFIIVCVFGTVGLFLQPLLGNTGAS
# UniProt A0A0H2ZM50, 1-441: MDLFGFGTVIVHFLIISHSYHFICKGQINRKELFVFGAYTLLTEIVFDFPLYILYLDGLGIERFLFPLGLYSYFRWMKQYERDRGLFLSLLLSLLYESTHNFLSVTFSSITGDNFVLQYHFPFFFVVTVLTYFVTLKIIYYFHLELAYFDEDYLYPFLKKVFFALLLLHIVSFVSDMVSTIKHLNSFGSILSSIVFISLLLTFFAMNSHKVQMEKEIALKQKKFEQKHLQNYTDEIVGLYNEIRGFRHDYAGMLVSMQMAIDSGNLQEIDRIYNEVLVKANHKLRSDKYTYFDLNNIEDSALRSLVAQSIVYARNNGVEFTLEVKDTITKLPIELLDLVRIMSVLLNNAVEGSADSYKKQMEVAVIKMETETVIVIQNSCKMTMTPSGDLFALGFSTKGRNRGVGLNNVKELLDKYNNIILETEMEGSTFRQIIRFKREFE
# UniProt P25084, whole entry: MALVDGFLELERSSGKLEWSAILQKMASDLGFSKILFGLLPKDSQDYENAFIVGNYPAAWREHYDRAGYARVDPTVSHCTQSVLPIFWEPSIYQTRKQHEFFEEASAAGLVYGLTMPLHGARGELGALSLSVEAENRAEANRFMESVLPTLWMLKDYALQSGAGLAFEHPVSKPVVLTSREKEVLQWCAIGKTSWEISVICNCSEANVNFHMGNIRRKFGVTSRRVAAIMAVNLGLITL
# UniProt P41145, whole entry: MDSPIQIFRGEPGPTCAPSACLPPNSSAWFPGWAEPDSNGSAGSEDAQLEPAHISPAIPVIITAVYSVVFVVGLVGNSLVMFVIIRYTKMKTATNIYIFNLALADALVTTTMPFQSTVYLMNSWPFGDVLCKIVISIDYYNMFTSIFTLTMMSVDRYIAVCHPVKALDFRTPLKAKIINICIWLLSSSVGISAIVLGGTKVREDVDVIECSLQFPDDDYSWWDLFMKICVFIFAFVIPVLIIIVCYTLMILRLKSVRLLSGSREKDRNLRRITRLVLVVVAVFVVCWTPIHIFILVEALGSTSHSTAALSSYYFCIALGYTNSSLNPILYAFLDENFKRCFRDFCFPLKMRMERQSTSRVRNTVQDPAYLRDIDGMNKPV
# UniProt P40261, whole entry: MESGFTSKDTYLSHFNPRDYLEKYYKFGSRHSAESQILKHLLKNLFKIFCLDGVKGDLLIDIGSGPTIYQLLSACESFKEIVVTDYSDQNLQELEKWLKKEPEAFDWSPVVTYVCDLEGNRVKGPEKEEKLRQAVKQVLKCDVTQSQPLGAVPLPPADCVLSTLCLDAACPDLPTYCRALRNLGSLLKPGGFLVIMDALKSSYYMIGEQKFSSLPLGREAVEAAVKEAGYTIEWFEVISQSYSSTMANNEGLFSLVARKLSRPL
# UniProt O33590, 1-425: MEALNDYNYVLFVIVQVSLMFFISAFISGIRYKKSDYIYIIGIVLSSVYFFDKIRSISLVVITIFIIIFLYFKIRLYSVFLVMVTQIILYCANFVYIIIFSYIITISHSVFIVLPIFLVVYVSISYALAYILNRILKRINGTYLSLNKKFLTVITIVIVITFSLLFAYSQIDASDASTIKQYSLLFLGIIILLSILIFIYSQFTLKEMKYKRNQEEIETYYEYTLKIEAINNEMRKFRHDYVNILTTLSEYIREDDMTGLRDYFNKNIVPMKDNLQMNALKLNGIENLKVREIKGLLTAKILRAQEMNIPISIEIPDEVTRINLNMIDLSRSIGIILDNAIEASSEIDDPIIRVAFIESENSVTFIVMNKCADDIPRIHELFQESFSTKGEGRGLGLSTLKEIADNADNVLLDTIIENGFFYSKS
# UniProt Q62645, whole entry, looked up: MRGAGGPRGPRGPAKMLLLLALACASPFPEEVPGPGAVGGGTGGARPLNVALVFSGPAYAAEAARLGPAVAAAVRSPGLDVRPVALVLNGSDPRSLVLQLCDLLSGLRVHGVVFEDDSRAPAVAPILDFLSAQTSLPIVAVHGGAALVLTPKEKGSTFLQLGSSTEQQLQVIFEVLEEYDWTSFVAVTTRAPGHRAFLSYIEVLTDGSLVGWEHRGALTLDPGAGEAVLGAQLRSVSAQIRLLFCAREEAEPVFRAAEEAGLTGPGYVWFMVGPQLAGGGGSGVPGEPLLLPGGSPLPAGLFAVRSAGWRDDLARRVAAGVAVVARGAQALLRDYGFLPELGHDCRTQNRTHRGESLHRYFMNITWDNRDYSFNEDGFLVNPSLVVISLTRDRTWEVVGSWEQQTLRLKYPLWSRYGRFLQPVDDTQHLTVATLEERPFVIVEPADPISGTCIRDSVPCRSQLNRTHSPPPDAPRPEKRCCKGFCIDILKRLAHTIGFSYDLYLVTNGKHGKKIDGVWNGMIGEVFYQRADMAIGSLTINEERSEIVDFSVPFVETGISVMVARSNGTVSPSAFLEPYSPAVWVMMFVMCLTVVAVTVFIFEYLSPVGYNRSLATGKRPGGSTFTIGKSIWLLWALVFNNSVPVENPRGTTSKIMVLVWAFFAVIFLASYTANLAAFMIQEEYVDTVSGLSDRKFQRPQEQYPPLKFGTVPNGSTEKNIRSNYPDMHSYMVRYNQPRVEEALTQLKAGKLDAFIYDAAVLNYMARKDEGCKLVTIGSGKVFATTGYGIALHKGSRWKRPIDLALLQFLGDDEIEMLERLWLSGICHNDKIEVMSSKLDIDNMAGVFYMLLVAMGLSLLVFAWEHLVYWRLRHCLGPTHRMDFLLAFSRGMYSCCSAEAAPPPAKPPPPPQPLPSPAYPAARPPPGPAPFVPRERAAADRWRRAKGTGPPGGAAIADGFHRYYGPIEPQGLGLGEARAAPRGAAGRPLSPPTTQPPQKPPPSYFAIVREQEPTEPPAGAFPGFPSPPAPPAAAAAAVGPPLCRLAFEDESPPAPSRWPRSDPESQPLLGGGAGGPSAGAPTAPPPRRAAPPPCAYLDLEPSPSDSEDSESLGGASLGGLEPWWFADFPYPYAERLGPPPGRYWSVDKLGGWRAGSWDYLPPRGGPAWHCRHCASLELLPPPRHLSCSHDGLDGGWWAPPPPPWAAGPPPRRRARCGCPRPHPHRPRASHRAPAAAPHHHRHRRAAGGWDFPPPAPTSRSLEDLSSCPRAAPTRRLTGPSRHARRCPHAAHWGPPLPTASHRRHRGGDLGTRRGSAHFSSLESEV
# ± gives the spread as reported.
# Chrna3/Chrnb2/Chrna6 with beta3 subunit: Chrna3/Chrnb2/Chrna6, with beta3 subunit (Rattus norvegicus, UniProt P04757+P12390+P43143)
# Competence histidine kinase ComD: Competence histidine kinase ComD (Streptococcus pneumoniae serotype 2, UniProt A0A0H2ZM50)
Compound,tested on,assay,system,endpoint,result
O=C(NCc1cc(Br)cc(Br)c1OC(=O)c1ccccc1[N+](=O)[O-])c1ccccc1Cl,"Transcriptional activator protein LasR (lasR, Pseudomonas aeruginosa, UniProt P25084)",reporter gene,,EC50,71 nM
CC(C)[C@@H]1NC(=O)[C@H](CO)NC(=O)[C@@H]2CSSC[C@H](NC(=O)CN)C(=O)N[C@@H](CSSC[C@@H](C(N)=O)NC(=O)[C@H](C)NC(=O)[C@H](CCC(=O)O)NC(=O)[C@@H]3CCCN3C(=O)[C@H](Cc3c[nH]cn3)NC(=O)[C@H](CC(N)=O)NC1=O)C(=O)N[C@@H](CO)C(=O)N[C@@H](Cc1c[nH]cn1)C(=O)N1CCC[C@H]1C(=O)N[C@@H](C)C(=O)N2,Chrna3/Chrnb2/Chrna6 with beta3 subunit,antagonist,,IC50,82.5 nM
NC(=O)[C@H](Cc1ccccc1)NC(=O)[C@H](CCCN=C(N)N)NC(=O)C12CC3CC(CC(C3)C1)C2,"Kappa-type opioid receptor (OPRK1, Homo sapiens, UniProt P41145)",binding,,Ki,> 5000 nM
NC(=O)c1cccc(CCN(CC[C@H](N)C(=O)O)C[C@H]2O[C@@H](n3cnc4c(N)ncnc43)[C@H](O)[C@@H]2O)c1,"Nicotinamide N-methyltransferase (NNMT, Homo sapiens, UniProt P40261)","enzyme activity, inhibitor, SAHH-coupled enzyme",,Ki,10000 ± 300 nM
C=C(C)C1CCc2c(c(C)cc(O)c(=O)c2O)C1 (stereo not drawn),"Gag-Pol polyprotein, RNase H domain (gag-pol, Human immunodeficiency virus type 1 group M subtype B, UniProt P04585)","RT RNase H activity, inhibitor",,IC50,600 nM
CC[C@H](C)[C@@H]1NC(=O)[C@H](Cc2ccccc2)NC(=O)[C@H](CC(=O)O)NC(=O)[C@@H](NC(=O)[C@@H](NC(=O)[C@H](CO)NC(=O)[C@@H](N)Cc2ccc(O)cc2)[C@@H](C)O)CSC(=O)[C@H](CCSC)NC1=O,"Accessory gene regulator protein C (Staphylococcus aureus, UniProt O33590)",inhibitor,,IC50,~0.5 nM
Nc1nc(Nc2ccc(Cl)cc2)nn1S(=O)(=O)c1ccc2ccccc2c1,"Gag-Pol polyprotein, reverse transcriptase (gag-pol, Human immunodeficiency virus 1, UniProt P03366)",,,IC50,280 nM
NC(=O)c1ccc(-c2cc(C(=O)O)cc(-n3cc(-c4ccc(C(F)(F)F)cc4)nn3)c2)cc1,HepG2,cytotoxicity,,IC50,> 30000 nM
CC[C@H](C)[C@H](NC(=O)[C@H](Cc1ccccc1)NC(=O)[C@H](CC(=O)O)NC(=O)[C@H](CCCNC(=N)N)NC(=O)[C@H](Cc1ccccc1)NC(=O)[C@H](Cc1ccccc1)NC(=O)[C@H](CCCCN)NC(=O)[C@H](CO)NC(=O)[C@H](CC(C)C)NC(=O)[C@H](CCCNC(=N)N)NC(=O)[C@H](CCSC)NC(=O)[C@@H](N)CCC(=O)O)C(=O)N[C@@H](CC(C)C)C(=O)N[C@@H](CCC(N)=O)C(=O)N[C@@H](CCCNC(=N)N)C(=O)N[C@@H](CCCCN)C(=O)N[C@@H](CCCCN)C(=O)O,Competence histidine kinase ComD,"reporter gene, agonist","Streptococcus pneumoniae, D39 pcomX::lacZ",EC50,10.3 nM
COc1ccc(OC[C@H]2c3cccn3CC(=O)N2Cc2cccc(F)c2)cc1,"Glutamate receptor ionotropic, NMDA 2D, with GluN1 (Rattus norvegicus, UniProt Q62645)","ion current, positive allosteric modulator",,EC50,3200 nM
CC(C)C[C@@H]1NC(=O)[C@H](CCC(=O)O)NC(=O)[C@@H]2CCCN2C(=O)[C@H](Cc2c[nH]cn2)NC(=O)[C@H](CC(N)=O)NC(=O)[C@H](C(C)C)NC(=O)[C@H](Cc2c[nH]cn2)NC(=O)[C@@H]2CSSC[C@H](NC(=O)CN)C(=O)N[C@@H](CSSC[C@@H](C(N)=O)NC1=O)C(=O)N[C@@H](CO)C(=O)N[C@@H](Cc1c[nH]cn1)C(=O)N1CCC[C@H]1C(=O)N[C@@H](C)C(=O)N2,Chrna3/Chrnb2/Chrna6 with beta3 subunit,antagonist,,IC50,0.99 nM
CC[C@H](C)[C@H](NC(=O)[C@H](CCCNC(=N)N)NC(=O)[C@H](CCSC)NC(=O)[C@H](C)N)C(=O)N[C@@H](CO)C(=O)N[C@@H](CCCNC(=N)N)C(=O)N[C@H](C(=O)N[C@H](C(=O)N[C@@H](CC(C)C)C(=O)N[C@H](CC(=O)O)C(=O)N[C@@H](Cc1ccccc1)C(=O)N[C@@H](CC(C)C)C(=O)N[C@@H](Cc1ccccc1)C(=O)N[C@@H](CC(C)C)C(=O)N[C@@H](CCCNC(=N)N)C(=O)N[C@@H](CCCCN)C(=O)N[C@@H](CCCCN)C(=O)O)[C@@H](C)CC)[C@@H](C)CC,Competence histidine kinase ComD,"reporter gene, antagonist","Streptococcus pneumoniae, D39 pcomX::lacZ",IC50,> 1000 nM

# Excerpt of the above:
Compound,tested on,assay,system,endpoint,result
C=C(C)C1CCc2c(c(C)cc(O)c(=O)c2O)C1 (stereo not drawn),"Gag-Pol polyprotein, RNase H domain (gag-pol, Human immunodeficiency virus type 1 group M subtype B, UniProt P04585)","RT RNase H activity, inhibitor",,IC50,600 nM
NC(=O)c1ccc(-c2cc(C(=O)O)cc(-n3cc(-c4ccc(C(F)(F)F)cc4)nn3)c2)cc1,HepG2,cytotoxicity,,IC50,> 30000 nM
